Experimental data collected from several papers.
Each line is one published result; not all experiments were run side by side. ± gives the spread as reported.

SMILES | target or system | assay | test system | setting | scale | endpoint | value
Nc1ccn(C2CCC(OC(C(=O)O)P(=O)(O)O)C2)c(=O)n1 (racemic) | HIV-1 reverse transcriptase Q151M | enzyme activity, inhibitor | – | with: poly(rI)·oligo(dC), [3H]dCTP | reference: mutant over wild type | fold resistance | 0.4 fold
Cn1ccn2cc(C(=O)NCc3ccc(F)cc3F)c(=O)c(O)c2c1=O | human immunodeficiency virus 1 | single-round vector infection | integrase G140S/Q148H | – | – | EC50 | 276 ± 96.7 nM
CC[C@H](C)[C@H](NC(=O)[C@H](CCCCN)NC(=O)[C@H](CCCCN)NC(=O)[C@H](CC(C)C)NC(=O)[C@H](Cc1c[nH]c2ccccc12)NC(=O)CN)C(=O)NCC(=O)N[C@@H](CCCCN)C(=O)N[C@@H](CCCCN)C(=O)N[C@H](C(=O)N[C@@H](CCC(=O)O)C(=O)N[C@@H](CCCNC(=N)N)C(=O)N[C@H](C(=O)NCC(=O)N[C@@H](CCC(N)=O)C(=O)N[C@@H](Cc1c[nH]cn1)C(=O)N[C@H](C(=O)N[C@@H](CCCNC(=N)N)C(=O)N[C@@H](CC(=O)O)C(=O)N[C@@H](C)C(=O)N[C@H](C(=O)N[C@H](C(=O)N[C@@H](CCC(N)=O)C(=O)N[C@H](C(=O)N[C@H](C(=O)NCC(=O)N[C@H](C(=O)N[C@@H](C)C(=O)N[C@@H](CCC(N)=O)C(=O)N[C@@H](CCC(N)=O)C(=O)N[C@@H](C)C(=O)N[C@@H](C)C(=O)N[C@@H](CC(N)=O)C(=O)N[C@H](C(=O)N[C@@H](C)C(=O)N[C@@H](C)C(=O)N[C@H](C(=O)N[C@@H](CC(C)C)C(=O)N[C@@H](CCCCN)C(N)=O)[C@@H](C)O)C(C)C)C(C)C)[C@@H](C)CC)[C@@H](C)O)[C@@H](C)CC)[C@@H](C)O)[C@@H](C)O)C(C)C)[C@@H](C)CC | Acinetobacter baumannii | broth microdilution | ATCC 19606, CAMHB | – | – | MIC | 4 µg/mL
CC(C)CC(C)n1ccn2cc(C(=O)NCc3ccc(F)cc3F)c(=O)c(O)c2c1=O (stereo not drawn) | human immunodeficiency virus 1 | single-round vector infection | integrase N155H | – | – | EC50 | 12.6 ± 1.2 nM
Cc1cc(/C=C/C#N)cc(C)c1-n1cnc2cnc(Nc3ccc(C#N)cc3)nc21 | HIV-1 | viral replication, single-round infection | RT mutant M184V | – | – | EC50 | 0.2 ± 0.01 nM
Cc1ccc(NS(=O)(=O)c2c(C(=O)N3CCCCCC3)c(C)n(C)c2C)c(Cl)c1 | Monkeypox virus | – | Vero C1008, wild type | 30 µM, 72 h | reference: untreated | relative infection | 0%
Cc1cc(/C=C/C#N)cc(C)c1Nc1nc(Nc2ccc(C#N)cc2)ncc1N | HIV-1 | viral replication, single-round infection | RT mutant K101E | – | – | EC50 | 2.3 ± 1.2 nM
COCCCN1CCn2cc(C(=O)NCc3ccc(F)cc3F)c(=O)c(O)c2C1=O | human immunodeficiency virus 1 | single-round vector infection | integrase R263K | – | – | EC50 | 8.6 ± 0.6 nM
CC[C@H](C)[C@H](NC(=O)[C@H](CCCCN)NC(=O)[C@H](Cc1ccc(O)cc1)NC(=O)[C@H](CCC(N)=O)NC(=O)[C@H](Cc1c[nH]cn1)NC(=O)[C@@H](NC(=O)[C@H](Cc1ccccc1)NC(=O)[C@H](Cc1c[nH]cn1)NC(=O)[C@@H](NC(=O)[C@@H](NC(=O)CNC(=O)[C@H](CCCNC(=N)N)NC(=O)[C@H](Cc1c[nH]c2ccccc12)NC(=O)[C@H](CC(C)C)NC(=O)[C@H](CO)NC(=O)[C@H](CCC(=O)O)NC(=O)[C@H](CC(C)C)NC(=O)[C@H](CCC(=O)O)NC(=O)[C@H](CC(N)=O)NC(=O)[C@H](CC(C)C)NC(=O)[C@H](CC(=O)O)NC(=O)[C@H](CO)NC(=O)[C@H](CCC(=O)O)NC(=O)[C@@H](NC(=O)[C@H](CC(C)C)NC(=O)[C@H](CCC(N)=O)NC(=O)[C@H](CCC(=O)O)NC(=O)[C@H](CCC(=O)O)NC(=O)[C@H](CC(C)C)NC(=O)[C@@H]1CCCN1C(=O)[C@@H](N)Cc1ccccc1)[C@@H](C)O)[C@@H](C)O)[C@@H](C)O)C(C)C)C(=O)N[C@@H](CCSC)C(=O)N1CCC[C@H]1C(=O)N[C@@H](Cc1ccccc1)C(=O)N[C@@H](CCCNC(=N)N)C(=O)N[C@@H](CCCCN)C(=O)N[C@@H](CC(C)C)C(=O)N[C@H](C(=O)N[C@@H](Cc1ccccc1)C(=O)N[C@@H](CCCCN)C(=O)N[C@@H](CCCNC(=N)N)C(=O)N[C@@H](CCCNC(=N)N)C(=O)N[C@@H](CCCCN)C(=O)N[C@@H](CC(N)=O)C(N)=O)C(C)C | Mycolicibacterium smegmatis | ATP luminescence | ATCC 607 | 48 h | – | MIC | > 50 µM
